Experimental data collected from several papers.
Lines come from different studies, so protocols differ. Several values in a cell are separate wells, animals, samples, runs or records. Numbers after ± are the reported error.
Voltage-dependent P/Q-type calcium channel subunit alpha-1A: Voltage-dependent P/Q-type calcium channel subunit alpha-1A (Homo sapiens, UniProt O00555)
Rab GDP dissociation inhibitor beta with Rab1A: Rab GDP dissociation inhibitor beta, with Rab1A (Homo sapiens, UniProt P50395)
UCHL1: Ubiquitin carboxyl-terminal hydrolase isozyme L1 (UCHL1, Homo sapiens, UniProt P09936)

SMILES	tested on	assay	system	setting	how to read	quantity	value
COc1ccc(F)cc1C(=O)NCc1ccc(-c2nn([C@@H](C)C(F)(F)F)c(N)c2C(N)=O)cc1	TEC (Homo sapiens, UniProt P42680)	target engagement, competitive chemoproteomics	human PBMCs	1 µM		inhibition	53.1%
CC[C@@H]1[C@H](F)C(=O)N[C@@H]1COc1nccc2cc(C(N)=O)c(OC)cc12	STK38L (Homo sapiens, UniProt Q9Y2H1)	ATP-site probe binding, ActivX profiling	THP-1 cell lysate	0.2 mM, Lys1 site		inhibition	12%
CN(C)c1ccc(CNCCC2CCOC(C)(C)C2)cc1.Cl (stereo not drawn)	Trypanosoma cruzi	reporter translation, Renilla luciferase mRNA translation	cell-free extract	40 µM	reference: DMSO	inhibition	-0.46%
N[C@@H](Cc1ccc(O)c(O)c1)C(=O)O	Voltage-dependent P/Q-type calcium channel subunit alpha-1A	ion current, antagonist	HEK293	30 µM		inhibition	8%
O=C(NO)c1ccc(CN2CCCCc3ccccc32)c(F)c1	CHRM5 (Homo sapiens, UniProt P08912)	radioligand binding, radioligand displacement		10 µM, mean of replicates		inhibition	-6.72%
OO	Histone acetyltransferase RTT109, with Vps75 (Saccharomyces cerevisiae, UniProt Q07794)	enzyme activity, inhibitor		62.5 µM, Rtt109-Vps75 complex, no DTT, with: [3H]acetyl-CoA		inhibition	3 ± 7%
C[C@H](NCc1ccc(OCc2ccccc2F)cc1)C(N)=O	Voltage-dependent P/Q-type calcium channel subunit alpha-1A	ion current, antagonist	HEK293	10 µM		inhibition	40%
Cc1cc(C)cc(COc2cc3c(cc2OCc2cc(C)cc(C)c2)[C@H]2C[C@](O)(Cc4cn(Cc5ccc(C#N)cc5)nn4)C[C@H](C)N2CC3)c1	Rab GDP dissociation inhibitor beta with Rab1A	GDI2-Rab1A interaction, NanoLuc complementation		6.25 µM		inhibition	93.1%
Cc1ccc(C(=O)Nc2ccc(S(=O)(=O)O)c3cc(S(=O)(=O)O)cc(S(=O)(=O)O)c23)cc1NC(=O)c1cccc(NC(=O)Nc2cccc(C(=O)Nc3cc(C(=O)Nc4ccc(S(=O)(=O)O)c5cc(S(=O)(=O)O)cc(S(=O)(=O)O)c45)ccc3C)c2)c1	SIRT2 (Homo sapiens, UniProt Q8IXJ6)	enzyme activity, inhibitor		10 µM		inhibition	< 5%
O=CC12c3ccccc3C(c3ccccc31)C1C(=O)N(c3ccc(F)cc3)C(=O)C12 (stereo not drawn)	UCHL1	covalent, intact protein LC-MS		12.5 µM		labelling	13.3%
CC(=O)Oc1ccccc1C(=O)O	Voltage-dependent P/Q-type calcium channel subunit alpha-1A	ion current, antagonist	HEK293	3 µM		inhibition	8%
CC[C@@H]([C@H](C)O)n1ncn(-c2ccc(N3CCN(c4ccc(OC[C@@H]5CO[C@@](Cn6cncn6)(c6ccc(F)cc6F)C5)cc4)CC3)cc2)c1=O	Trypanosoma cruzi	reporter translation, Renilla luciferase mRNA translation	cell-free extract	40 µM	reference: DMSO	inhibition	-4.7%
Cc1cc(C)c(C=C(C#N)C(=O)Nc2nccs2)cc1C	UCHL1	covalent, intact protein LC-MS		12.5 µM		labelling	16.2%
Cc1cc(-c2ccnc3[nH]cc(F)c23)cc(F)c1[C@@]1(O)[C@H](C)CN(C(=O)CN)C[C@@H]1C	LATS1 (Homo sapiens, UniProt O95835)	ATP probe binding, KiNativ, refers to: Lys2 site	HEK293T cell lysate	1 µM		inhibition	81.2%
CC(=O)Nc1ccc(O)cc1	Voltage-dependent P/Q-type calcium channel subunit alpha-1A	ion current, antagonist	HEK293	30 µM		inhibition	19%
COc1cc2ncnc(Nc3ccc(Oc4ccccc4)cc3C)c2cc1OC	LYN (Homo sapiens, UniProt P07948)	kinase activity, inhibitor		1 µM		inhibition	90%
CCc1oc2ccccc2c1C(=O)c1cc(Br)c(O)c(Br)c1	SLC22A12 (Homo sapiens, UniProt Q96S37, L153A)	urate uptake	HEK293T	0.5 µM, 10 min, 37 °C, with: 200 µM [14C]urate		inhibition	36.1% and 47.7% and 42.8% and 55.7% and 26.9% and 47.3%
Cc1cc(C)cc(COc2cc3c(cc2OCc2cc(C)cc(C)c2)[C@H]2C[C@](O)(Cc4cn(Cc5cccc6ccccc56)nn4)C[C@H](C)N2CC3)c1	Rab GDP dissociation inhibitor beta with Rab1A	GDI2-Rab1A interaction, NanoLuc complementation		6.25 µM		inhibition	95.8%
COc1cc(C(=O)NS(=O)(=O)c2ccccc2C)ccc1Cc1cn(C)c2ccc(NC(=O)OC3CCCC3)cc12	Volume-regulated anion channel subunit LRRC8C, part LRRC8A IL1 chimera (LRRC8C, Homo sapiens, UniProt Q8TDW0, M48D)	ion current, inhibitor, whole-cell patch clamp	HCT LRRC8-/- cells	30 µM, constitutively open channel, +100 mV		inhibition	65.9% and 73.7% and 67.2% and 51.7% and 56.8% and 59.9%
CCCN1CCCC[C@H]1C(=O)Nc1c(C)cccc1C	Voltage-dependent P/Q-type calcium channel subunit alpha-1A	ion current, antagonist	HEK293	10 µM		inhibition	5%
[2H]c1cc(C)c(NC(=O)c2cnc(Nc3cc(N4CCCCC4)nc(C)n3)s2)c(Cl)c1	PDGFRB (Homo sapiens, UniProt P09619)			0.01 µM		inhibition	30 to 90%

A few entries again:
SMILES	tested on	assay	system	setting	how to read	quantity	value
C[C@H](NCc1ccc(OCc2ccccc2F)cc1)C(N)=O	Voltage-dependent P/Q-type calcium channel subunit alpha-1A	ion current, antagonist	HEK293	10 µM		inhibition	40%
Cc1cc(C)cc(COc2cc3c(cc2OCc2cc(C)cc(C)c2)[C@H]2C[C@](O)(Cc4cn(Cc5cccc6ccccc56)nn4)C[C@H](C)N2CC3)c1	Rab GDP dissociation inhibitor beta with Rab1A	GDI2-Rab1A interaction, NanoLuc complementation		6.25 µM		inhibition	95.8%
CC(=O)Oc1ccccc1C(=O)O	Voltage-dependent P/Q-type calcium channel subunit alpha-1A	ion current, antagonist	HEK293	3 µM		inhibition	8%
